Results pooled from the literature.
Compare with care: the assays were run in different laboratories. ± marks the error that the study gave.
Cell line: A-375

Compound	test	conditions	IC50
CC(C)c1cccc(C(C)C)c1-n1c(Cl)c(Cl)n(-c2c(C(C)C)cccc2C(C)C)c1=[Se].[Cl][Ag]	cell growth or viability, MTT	72 h	0.8 µM
O=C1c2ccc(O)cc2OC1(O)Cc1ccc(O)c(O)c1 (centres unmarked)	cell growth or viability, MTT	72 h	> 400 µM
CC(C)c1cccc(C(C)C)c1N1CCN(c2c(C(C)C)cccc2C(C)C)C1=[Se].[Cl][Ag]	cell growth or viability, MTT	72 h	0.4 µM
CO[C@@H]1C(=O)c2ccc(O)cc2O[C@@H]1c1ccc(O)c(O)c1 (relative stereo)	cell growth or viability, MTT	72 h	345 µM
NC1CCCCC1N.O=C(CCCc1ccccc1)[O][Pt]1([O]C(=O)CCCc2ccccc2)[O]C(=O)C(=O)[O]1	cytotoxicity	72 h	0.64 ± 0.13 µM
O=C(/C=C/c1ccc2c(c1)C(=O)N(CCCc1ccccc1)CC2)NO	cell growth, SRB	72 h	2.09 ± 1.2 µM
COc1cccc(-c2ccc(Nc3ccc(CN(C)C)cc3)c(OC)c2F)c1	HTRF, measured: total Erk		> 1000 µM
CCCC(CCC)C(=O)[O][Pt]([Cl])([Cl])[O]C(=O)C(CCC)CCC.N.N	cytotoxicity	72 h	1.25 ± 0.25 µM
Cc1ccc(CN2C(=O)/C(=N\c3ccc(Cl)cc3Br)c3ccccc32)cc1	cell growth or viability, MTT	48 h	0.97 µM
CC(=O)O[C@H]1CC[C@]2(C)[C@H]3CC=C4[C@@H]5[C@@H](C)[C@H](C)CC[C@]5(C(=O)O)CC[C@@]4(C)[C@]3(C)CC[C@H]2C1(C)C	cell growth or viability, MTT	24 h	50.9 µM
CCCC(CCC)C(=O)[O][Pt]([Cl])([Cl])[O]C(C)=O.N.N	cytotoxicity	72 h	2.17 ± 0.53 µM
CC(C)c1cccc(C(C)C)c1-n1ccn(-c2c(C(C)C)cccc2C(C)C)c1=[Se].[Cl][Ag]	cell growth or viability, MTT	72 h	0.5 µM
CCCC(CCC)C(=O)[O][Pt]1([O]C(=O)C(CCC)CCC)[O]C(=O)C(=O)[O]1.NC1CCCCC1N	cytotoxicity	72 h	4.17 ± 0.87 µM
Cc1c(C)n(-c2c(C(C)C)cccc2C(C)C)c(=[Se])n1-c1c(C(C)C)cccc1C(C)C.[Cl][Ag]	cell growth or viability, MTT	72 h	0.4 µM
